{"data": "Measurements gathered from unrelated publications", "CD38": "ADP-ribosyl cyclase/cyclic ADP-ribose hydrolase 1 (CD38, Homo sapiens, UniProt P28907)", "Seed linoleate 13S-lipoxygenase-1": "Seed linoleate 13S-lipoxygenase-1 (Glycine max, UniProt P08170)", "RPS6KA3 T493M C-terminal kinase domain": "Ribosomal protein S6 kinase alpha-3, C-terminal kinase domain (RPS6KA3, Homo sapiens, UniProt P51812, T493M)", "note": "Compare with care: the assays were run in different laboratories. Values joined by “and” are separate records of one study, mostly repeats; a detail may differ. Numbers after ± are the reported error.", "chain of UniProt P08170 (whole entry, looked up)": "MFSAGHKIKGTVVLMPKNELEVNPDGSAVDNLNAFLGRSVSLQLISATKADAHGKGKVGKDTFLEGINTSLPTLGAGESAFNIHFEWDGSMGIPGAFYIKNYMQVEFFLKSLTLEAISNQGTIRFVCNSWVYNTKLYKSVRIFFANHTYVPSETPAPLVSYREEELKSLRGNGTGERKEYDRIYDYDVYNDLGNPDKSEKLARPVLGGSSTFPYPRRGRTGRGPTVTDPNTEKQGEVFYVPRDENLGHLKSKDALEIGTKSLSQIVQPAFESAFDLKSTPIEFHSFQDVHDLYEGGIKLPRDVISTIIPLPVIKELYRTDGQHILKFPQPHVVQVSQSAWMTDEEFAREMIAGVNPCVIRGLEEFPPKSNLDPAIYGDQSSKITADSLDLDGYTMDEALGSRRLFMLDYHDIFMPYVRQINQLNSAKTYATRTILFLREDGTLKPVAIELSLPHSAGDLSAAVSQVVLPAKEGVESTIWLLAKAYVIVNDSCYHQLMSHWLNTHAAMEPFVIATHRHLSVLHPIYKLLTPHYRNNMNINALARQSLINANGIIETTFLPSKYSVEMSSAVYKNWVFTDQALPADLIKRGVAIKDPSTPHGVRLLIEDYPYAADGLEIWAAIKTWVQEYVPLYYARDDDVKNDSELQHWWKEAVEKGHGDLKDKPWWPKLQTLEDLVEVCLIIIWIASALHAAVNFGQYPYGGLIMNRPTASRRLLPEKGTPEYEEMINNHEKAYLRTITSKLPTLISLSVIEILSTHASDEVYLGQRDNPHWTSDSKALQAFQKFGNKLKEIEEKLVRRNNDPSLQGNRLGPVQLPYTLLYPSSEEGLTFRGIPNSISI", "chain of UniProt P32745 (whole entry, looked up)": "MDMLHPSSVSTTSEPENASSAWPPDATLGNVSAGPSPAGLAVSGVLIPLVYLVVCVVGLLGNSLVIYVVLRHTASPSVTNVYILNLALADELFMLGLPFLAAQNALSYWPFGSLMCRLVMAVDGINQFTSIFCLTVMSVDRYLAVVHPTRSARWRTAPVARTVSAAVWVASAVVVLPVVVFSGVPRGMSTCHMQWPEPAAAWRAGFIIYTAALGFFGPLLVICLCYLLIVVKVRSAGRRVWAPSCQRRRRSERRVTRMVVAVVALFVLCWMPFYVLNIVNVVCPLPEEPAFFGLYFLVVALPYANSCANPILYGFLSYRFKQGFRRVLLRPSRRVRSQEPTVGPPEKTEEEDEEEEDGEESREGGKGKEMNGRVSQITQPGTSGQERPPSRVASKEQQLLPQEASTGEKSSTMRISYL", "chain of UniProt Q04771 (whole entry, unmodified, looked up)": "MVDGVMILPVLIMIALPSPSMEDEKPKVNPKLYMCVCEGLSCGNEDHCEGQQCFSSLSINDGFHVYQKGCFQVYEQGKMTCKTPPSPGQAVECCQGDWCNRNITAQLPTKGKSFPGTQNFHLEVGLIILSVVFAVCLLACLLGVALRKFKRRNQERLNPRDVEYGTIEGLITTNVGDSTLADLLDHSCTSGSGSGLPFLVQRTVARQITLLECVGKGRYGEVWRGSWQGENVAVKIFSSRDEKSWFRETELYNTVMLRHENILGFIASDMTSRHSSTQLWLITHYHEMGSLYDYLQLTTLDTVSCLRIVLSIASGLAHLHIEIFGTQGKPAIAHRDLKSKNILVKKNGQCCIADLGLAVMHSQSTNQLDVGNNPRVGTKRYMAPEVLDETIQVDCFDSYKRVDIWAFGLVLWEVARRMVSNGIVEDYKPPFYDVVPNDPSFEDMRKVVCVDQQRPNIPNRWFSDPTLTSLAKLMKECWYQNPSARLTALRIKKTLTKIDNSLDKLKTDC", "chain of UniProt P28907 (whole entry, looked up)": "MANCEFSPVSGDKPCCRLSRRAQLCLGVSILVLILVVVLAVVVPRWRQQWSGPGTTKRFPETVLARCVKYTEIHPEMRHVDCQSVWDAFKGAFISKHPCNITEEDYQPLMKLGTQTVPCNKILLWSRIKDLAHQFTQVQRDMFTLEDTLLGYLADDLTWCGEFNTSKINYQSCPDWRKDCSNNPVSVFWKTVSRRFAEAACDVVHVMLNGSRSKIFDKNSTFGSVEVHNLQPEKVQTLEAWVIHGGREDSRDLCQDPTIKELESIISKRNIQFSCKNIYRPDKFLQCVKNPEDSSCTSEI", "chain of UniProt P51812 (whole entry, unmodified, looked up)": "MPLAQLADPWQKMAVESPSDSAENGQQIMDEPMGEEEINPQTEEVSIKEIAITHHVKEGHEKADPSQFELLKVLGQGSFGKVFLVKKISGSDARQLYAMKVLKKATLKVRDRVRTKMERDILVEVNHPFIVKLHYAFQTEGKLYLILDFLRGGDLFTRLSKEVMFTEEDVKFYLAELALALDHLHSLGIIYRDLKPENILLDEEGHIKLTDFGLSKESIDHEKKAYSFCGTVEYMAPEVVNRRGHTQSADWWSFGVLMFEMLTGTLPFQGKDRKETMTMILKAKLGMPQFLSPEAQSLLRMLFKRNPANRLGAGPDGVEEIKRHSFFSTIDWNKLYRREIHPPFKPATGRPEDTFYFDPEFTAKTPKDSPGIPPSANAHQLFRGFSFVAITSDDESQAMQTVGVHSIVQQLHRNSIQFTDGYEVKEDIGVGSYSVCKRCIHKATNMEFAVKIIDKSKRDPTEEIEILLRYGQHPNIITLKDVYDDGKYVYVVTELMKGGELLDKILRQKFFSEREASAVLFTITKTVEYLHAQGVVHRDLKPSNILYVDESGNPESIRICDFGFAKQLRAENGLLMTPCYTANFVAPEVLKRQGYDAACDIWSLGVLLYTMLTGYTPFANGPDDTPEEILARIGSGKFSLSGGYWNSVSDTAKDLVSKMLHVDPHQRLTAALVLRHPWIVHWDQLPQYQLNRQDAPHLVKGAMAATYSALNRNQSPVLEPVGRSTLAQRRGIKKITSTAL", "chain of UniProt Q9NS87 (whole entry, looked up)": "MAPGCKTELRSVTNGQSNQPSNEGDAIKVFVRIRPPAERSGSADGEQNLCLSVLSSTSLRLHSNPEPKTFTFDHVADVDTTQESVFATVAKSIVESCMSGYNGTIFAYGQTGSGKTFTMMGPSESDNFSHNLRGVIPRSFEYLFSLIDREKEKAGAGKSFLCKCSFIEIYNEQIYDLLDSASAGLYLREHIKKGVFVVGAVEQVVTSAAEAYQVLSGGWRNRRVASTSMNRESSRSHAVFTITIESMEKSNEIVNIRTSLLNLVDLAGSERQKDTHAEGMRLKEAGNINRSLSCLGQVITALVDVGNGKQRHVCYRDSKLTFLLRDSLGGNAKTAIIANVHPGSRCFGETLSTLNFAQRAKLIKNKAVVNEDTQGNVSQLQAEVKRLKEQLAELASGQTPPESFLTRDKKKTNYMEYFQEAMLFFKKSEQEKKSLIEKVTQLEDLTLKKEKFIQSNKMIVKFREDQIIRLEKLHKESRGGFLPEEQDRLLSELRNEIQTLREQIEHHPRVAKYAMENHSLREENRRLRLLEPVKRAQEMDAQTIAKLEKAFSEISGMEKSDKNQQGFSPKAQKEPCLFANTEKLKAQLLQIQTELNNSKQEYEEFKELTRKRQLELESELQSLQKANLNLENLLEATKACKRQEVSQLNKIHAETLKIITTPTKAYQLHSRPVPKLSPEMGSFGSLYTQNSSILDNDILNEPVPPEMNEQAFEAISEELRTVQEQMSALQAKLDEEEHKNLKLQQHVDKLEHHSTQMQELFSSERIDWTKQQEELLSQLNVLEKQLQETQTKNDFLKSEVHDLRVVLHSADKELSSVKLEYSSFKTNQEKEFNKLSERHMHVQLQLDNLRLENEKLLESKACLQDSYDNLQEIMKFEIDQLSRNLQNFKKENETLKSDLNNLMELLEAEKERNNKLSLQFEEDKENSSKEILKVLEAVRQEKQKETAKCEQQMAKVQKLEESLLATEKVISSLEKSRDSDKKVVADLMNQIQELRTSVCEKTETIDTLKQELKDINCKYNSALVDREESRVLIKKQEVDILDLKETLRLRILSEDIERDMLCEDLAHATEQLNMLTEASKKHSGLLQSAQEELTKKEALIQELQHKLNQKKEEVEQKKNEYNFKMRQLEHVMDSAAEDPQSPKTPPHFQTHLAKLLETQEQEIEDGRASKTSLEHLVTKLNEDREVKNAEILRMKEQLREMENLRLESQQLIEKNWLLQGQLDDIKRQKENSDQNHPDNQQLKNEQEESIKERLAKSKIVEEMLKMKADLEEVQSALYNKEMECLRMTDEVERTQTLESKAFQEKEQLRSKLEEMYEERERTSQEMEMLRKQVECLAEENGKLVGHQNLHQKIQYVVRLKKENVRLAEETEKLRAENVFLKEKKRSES", "chain of UniProt Q6SZW1 (whole entry, looked up)": "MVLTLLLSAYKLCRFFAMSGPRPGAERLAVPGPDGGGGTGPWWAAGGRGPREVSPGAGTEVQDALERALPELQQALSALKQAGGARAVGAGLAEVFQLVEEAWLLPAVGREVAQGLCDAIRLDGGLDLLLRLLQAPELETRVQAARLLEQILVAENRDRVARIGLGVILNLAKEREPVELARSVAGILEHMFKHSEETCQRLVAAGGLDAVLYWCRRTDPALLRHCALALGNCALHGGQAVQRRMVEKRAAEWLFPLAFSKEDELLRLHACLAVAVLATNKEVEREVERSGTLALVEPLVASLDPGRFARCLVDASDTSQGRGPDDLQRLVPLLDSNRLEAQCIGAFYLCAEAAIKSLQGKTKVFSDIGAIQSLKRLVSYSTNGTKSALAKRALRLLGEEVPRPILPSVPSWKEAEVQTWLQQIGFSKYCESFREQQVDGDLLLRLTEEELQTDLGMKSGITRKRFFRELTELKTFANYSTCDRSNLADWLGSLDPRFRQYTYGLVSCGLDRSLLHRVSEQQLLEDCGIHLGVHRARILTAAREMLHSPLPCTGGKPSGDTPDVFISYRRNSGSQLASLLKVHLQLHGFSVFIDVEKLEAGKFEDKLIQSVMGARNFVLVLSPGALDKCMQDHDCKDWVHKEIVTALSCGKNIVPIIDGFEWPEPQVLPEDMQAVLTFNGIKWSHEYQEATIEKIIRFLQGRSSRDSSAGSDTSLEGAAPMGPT"}
{"Compound": "COc1ccc(N2CCN(C(=O)c3ccc(Cl)c([N+](=O)[O-])c3)CC2)cc1", "target": "SEC14 (Saccharomyces cerevisiae, UniProt P24280)", "assay": "enzyme activity, inhibitor, radiometric", "IC50": "175 nM"}
{"Compound": "CNC(=O)c1cc(C)ccc1NC(=O)c1ccc(-c2cc(O)ccc2C)c(C)c1", "target": "EPHA4 (Homo sapiens, UniProt P54764)", "assay": "target engagement in cells, BRET", "IC50": "227 nM"}
{"Compound": "CCc1c(O)ccc2nc(-c3cc(-c4cnn(C5CCNCC5)c4)cnc3N)oc12", "target": "JAK2 (Homo sapiens, UniProt O60674)", "assay": "enzyme activity, inhibitor, TR-FRET", "IC50": "280 nM"}
{"Compound": "O=C([O][Ti+2][O]C(=O)c1ccc([P+]([Au-][Cl])(c2ccccc2)c2ccccc2)cc1)c1ccc([P+]([Au-][Cl])(c2ccccc2)c2ccccc2)cc1.c1cc[cH-]c1.c1cc[cH-]c1", "target": "AKT3 (Homo sapiens, UniProt Q9Y243)", "assay": "enzyme activity, inhibitor, radiometric", "IC50": "355 nM"}
{"Compound": "CCCn1cnc(C[C@H](NC(=O)c2cnc(C)cn2)C(=O)N2CCC[C@H]2C(N)=O)c1", "target": "Thyrotropin-releasing hormone receptor (Mus musculus, UniProt P21761)", "assay": "ligand displacement, radioligand", "IC50": "> 50000 nM"}
{"Compound": "CC[C@H](C)[C@H](NC(=O)CNC(=O)C1CCN(C(=O)[C@H](CO)NC(=O)[C@@H](N)Cc2c[nH]cn2)CC1)C(=O)N[C@@H](Cc1ccccc1)C(=O)N[C@H](C(=O)N[C@@H](CC(=O)O)C(=O)N[C@@H](CO)C(=O)N[C@@H](Cc1ccc(O)cc1)C(=O)N[C@@H](CO)C(=O)N[C@@H](CCCNC(=N)N)C(=O)N[C@@H](Cc1ccc(O)cc1)C(=O)N[C@@H](CCCNC(=N)N)C(=O)N[C@@H](CCCCN)C(=O)NC(C)(C)C(=O)N[C@@H](C)C(=O)N[C@@H](C)C(=O)N[C@H](C(=O)N[C@@H](CCCCN)C(=O)N[C@@H](CCCCN)C(=O)N[C@@H](Cc1ccc(O)cc1)C(=O)N[C@@H](CC(C)C)C(=O)N[C@@H](C)C(=O)N[C@@H](C)C(=O)N[C@H](C(=O)N[C@@H](CC(C)C)C(=O)NC(C)(C)C(=O)N[C@@H](CCCCN)C(=O)N[C@@H](CCCNC(=N)N)C(=O)N[C@@H](Cc1ccc(O)cc1)C(=O)N[C@@H](CCCCN)C(=O)N[C@@H](CCC(N)=O)C(=O)N[C@@H](CCCCN)C(=O)N[C@H](C(=O)N[C@@H](CCCCN)C(=O)N[C@@H](CC(N)=O)C(=O)N[C@H](CCCCN)C(N)=O)C(C)C)C(C)C)C(C)C)[C@@H](C)O", "target": "ADCYAP1R1 (Homo sapiens, UniProt P41586)", "assay": "ligand displacement, radioligand", "IC50": "851 nM"}
{"Compound": "Fc1ccc(NCc2cn(-c3ccccc3)nc2-c2ccc(OCc3ccccc3)cc2)cc1", "target": "PTGS1 (Homo sapiens, UniProt P23219)", "assay": "enzyme activity, inhibitor, absorbance", "IC50": "139000 nM"}
{"Compound": "O=c1c2ncn3c2ncn1[C@@H]1O[C@H](COCc2cn(nn2)C[C@H]2O[C@@H]3[C@H](O)[C@@H]2O)[C@@H](O)[C@H]1O", "target": "CD38", "assay": "enzyme activity, inhibitor", "IC50": "396000 nM"}
{"Compound": "CCN(CC)C(=O)C(C)Sc1nnc(C2CCN(C(=O)Nc3ccccc3)CC2)n1CC (centres unmarked)", "target": "Seed linoleate 13S-lipoxygenase-1", "assay": "enzyme activity, inhibitor", "IC50": "2650 nM and < 7000 nM"}
{"Compound": "CC(C)c1ccc(Cn2ccc([C@H](C)[C@](O)(Cn3cnnn3)c3ccc(F)cc3F)n2)cc1", "target": "CYP2C19 (Homo sapiens, UniProt P33261)", "assay": "enzyme activity, inhibitor", "test system": "human, liver microsomes", "IC50": "5330 nM"}
{"Compound": "N#Cc1c(O)nsc1Nc1ccccc1C(F)(F)F", "target": "SARM1 (Homo sapiens, UniProt Q6SZW1)", "assay": "enzyme activity, inhibitor", "IC50": "370 nM"}
{"Compound": "Cc1cc(=O)oc2cc3c(c(C)c12)C(=O)c1c(O)cccc1C3=O", "target": "mushroom tyrosinase", "assay": "enzyme activity", "setting": "together with: L-DOPA", "IC50": "> 100 µg/mL"}
{"Compound": "COc1ccc(S(=O)(=O)NCc2c[nH]nc2-c2cccs2)cc1", "target": "Myosin-7 (MYH7, Bos taurus, UniProt Q9BE39)", "assay": "ATPase activity, inhibitor", "IC50": "10000 nM"}
{"Compound": "O=C(/C=C(\\O)C(F)(F)C(F)(F)F)c1cccnc1", "target": "formate-nitrite transporter (Plasmodium berghei, UniProt A0A509AFP9)", "assay": "L-lactate transport, inhibitor", "test system": "yeast", "setting": "pH 6.8, together with: 14C-L-lactate 1 mM", "IC50": "750 ± 30 nM"}
{"Compound": "CCCc1nc2cc(C(=O)N3CCC4(CC3)CC(=O)c3cc5c(cc3O4)OC(C)(C)CC5)cc(C)c2[nH]1", "target": "ACACA (Homo sapiens, UniProt Q13085)", "assay": "enzyme activity, inhibitor, ADP detection", "IC50": "436 nM"}
{"Compound": "COc1cc(-c2nc3ccc(C(=O)NCCN4CCN(C5CCCCC5)CC4)cc3n2C2CCC2)cc(OC)c1OC", "target": "ACVR1 (Homo sapiens, UniProt Q04771)", "assay": "target engagement in cells, BRET", "IC50": "2090 nM"}
{"Compound": "C=C(NC(=O)C(=C)NC(=O)c1csc(C2=NC3c4csc(n4)C4NC(=O)c5csc(n5)C(C(C)(O)C(C)O)NC(=O)C5CSC(=N5)C(=CC)NC(=O)C(C(C)O)NC(=O)c5csc(n5)C3(CC2)NC(=O)C(Cc2c[nH]c3ccccc23)NC(=O)C(=C)NC(=O)C(C)NC(=O)C(C(C)CC)NC2C=Cc3c(C(C)O)cc(nc3C2O)C(=O)OC4C)n1)C(N)=O (centres unmarked)", "target": "Proteasome subunit beta type-7, in 20S proteasome (PSMB7, Homo sapiens, UniProt Q99436)", "assay": "trypsin-like activity, inhibitor", "test system": "purified 20S proteasome", "setting": "15 min preincubation, 37 °C, together with: Boc-Leu-Arg-Arg-AMC substrate", "IC50": "> 190 nM"}
{"Compound": "CNC(=O)c1ccc2c(c1)N(C)S(=O)(=O)c1cnc(SC)nc1-2", "target": "Kinesin-like protein KIF15 (Homo sapiens, UniProt Q9NS87)", "assay": "ATPase activity, inhibitor", "IC50": "6200 nM"}
{"Compound": "Nc1ncnc2c1ncn2CCOCP(=O)(O)OP(=O)(O)OP(=O)(O)O", "target": "Gag-Pol polyprotein, reverse transcriptase (gag-pol, Human immunodeficiency virus 1, UniProt P03366)", "assay": "reverse transcriptase activity, inhibitor", "IC50": "6400 ± 800 nM"}
{"Compound": "CC(=O)N[C@H]1[C@@H](OC(=O)NCCCOCCOCCOCCCNC(=O)O[C@H]2O[C@H](CNC(=O)OCCOCCOCCOCCOCCOCCOCCOC(=O)NC[C@H]3O[C@H](OC(=O)NCCCOCCOCCOCCCNC(=O)O[C@H]4O[C@H](CO)[C@@H](O)[C@H](O)[C@H]4NC(C)=O)[C@H](NC(C)=O)[C@@H](O)[C@@H]3O)[C@@H](O)[C@H](O)[C@H]2NC(C)=O)O[C@H](CO)[C@@H](O)[C@@H]1O", "target": "wheat germ agglutinin (Triticum vulgaris)", "assay": "binding to immobilised GlcNAc, inhibitor, enzyme-linked lectin", "setting": "together with: HRP-labelled WGA", "IC50": "15 nM"}
{"Compound": "CCc1ccc2c(C)nc(NC3=NC(C)(C)C=C(C)N3)nc2c1", "target": "CD38", "assay": "enzyme activity, inhibitor, fluorescence", "IC50": "22000 nM"}
{"Compound": "COc1cc(OC)c(C(=O)/C=C/c2ccc(N(C)CCO)cc2)c(OC)c1", "target": "Seed linoleate 13S-lipoxygenase-1", "assay": "enzyme activity, inhibitor, absorbance", "IC50": "52500 nM"}
{"Compound": "Cn1c(=O)n(C)c2cc(/C=C(\\C#N)C(N)=O)ccc21", "target": "RPS6KA3 T493M C-terminal kinase domain", "assay": "kinase activity, inhibitor", "setting": "together with: 0.1 mM ATP", "IC50": "7100 nM"}
{"Compound": "COc1cc(-c2nc3ccc(C(=O)NCCCN4CCN(C(=O)c5ccccc5)CC4)cc3n2C2CCC2)cc(OC)c1OC", "target": "ACVR1 (Homo sapiens, UniProt Q04771, R206H)", "assay": "binding, NanoBRET", "test system": "HEK293", "IC50": "2610 nM"}
{"Compound": "CCn1nc(-c2ccc(C(F)(F)F)cc2)nc2c(=O)n(C)c(=O)nc1-2", "target": "TPR (Trypanosoma brucei brucei, UniProt P39051)", "assay": "inhibitor, DTNB-coupled colourimetric", "setting": "together with: substrate at Km", "IC50": "15200 nM"}
{"Compound": "CNC(=O)C1CCN(c2ccccc2NC(=O)c2ccc(-c3c(C)ccc4[nH]ncc34)c(C)c2)CC1", "target": "YES1 (Homo sapiens, UniProt P07947)", "assay": "target engagement in cells, BRET", "IC50": "10900 nM"}
{"Compound": "Cc1ccncc1-c1c[nH]n(-c2ccccn2)c1=O", "target": "EGLN2 (Homo sapiens, UniProt Q96KS0)", "assay": "enzyme activity, inhibitor, europium VBC binding", "setting": "10 µM FeSO4, 2 mM ascorbate, together with: 20 µM 2-oxoglutarate", "IC50": "530 nM"}
{"Compound": "CC(C)NCc1ccc(C[C@@H]2NC(=O)[C@@H](Cc3c[nH]c4ccccc34)NC(=O)[C@H](Cc3ccc(O)cc3)NC(=O)[C@H](NC(=O)[C@@H](N)Cc3ccc(Cl)cc3)CSSC[C@@H](C(=O)N[C@@H](Cc3ccc4ccccc4c3)C(N)=O)NC(=O)[C@H]([C@@H](C)O)NC2=O)cc1", "target": "SSTR3 (Homo sapiens, UniProt P32745)", "assay": "ligand displacement, radioligand", "setting": "cell membranes", "IC50": "300 nM and 234 nM and ~350 nM"}
{"Compound": "NC(=O)Nc1nc2cc(Br)ccc2[nH]c1=O", "target": "Sensor histidine protein kinase/phosphatase WalK (walK, Streptococcus pneumoniae, UniProt Q8DPL8)", "assay": "enzyme activity, ATP-competitive inhibitor", "IC50": "171000 nM"}
{"Compound": "C/C=C/C(=O)Nc1ccc2nc(NCCCCCN(C)C)nc(NCCCCCCN(C)C)c2c1", "target": "M-phase phosphoprotein 8, chromodomain (Homo sapiens, UniProt Q99549)", "assay": "methyl-lysine binding, TR-FRET", "IC50": "16000 ± 3800 nM"}
{"Compound": "O=C(NCCCCc1ccccc1)n1c(=O)oc2cc(-c3ccc(F)cc3)ccc21", "target": "Acid ceramidase (Asah1, Mus musculus, UniProt Q9WV54)", "assay": "cellular enzyme activity, LC-MS", "test system": "RAW264.7", "setting": "3 h", "IC50": "400 nM"}
{"Compound": "O=c1c2ccccc2ncn1-c1ccccc1F", "target": "MAPK14 (Homo sapiens, UniProt Q16539)", "assay": "enzyme activity, inhibitor, fluorescence", "IC50": "520000 nM"}
{"Compound": "O=C(OCc1cccc(O)c1O)c1ccc(O)c(CO)c1", "target": "Neutrophil cytosol factor 1, tandem SH3 domain (NCF1, Homo sapiens, UniProt P14598)", "assay": "binding to p22phox peptide, inhibitor, fluorescence polarization", "setting": "together with: FITC-p22phox peptide 5 nM", "IC50": "149 nM"}
{"Compound": "N#C/C(=C\\c1cccc(-c2cn[nH]c2)c1)C(N)=O", "target": "RPS6KA3 T493M C-terminal kinase domain", "assay": "kinase activity, inhibitor", "setting": "together with: 0.1 mM ATP", "IC50": "370 nM"}
{"Compound": "O=[N+]([O-])c1ccc(Cn2cc(Cn3cc(CO)nn3)nn2)cc1", "target": "Cytohesin-3, PH domain (Cyth3, Mus musculus, UniProt O08967)", "assay": "PI(3,4,5)P3 binding, competitive SPR", "setting": "PH domain 500 nM", "IC50": "789 ± 35 nM"}
